Experimental data pooled from the literature.
Numbered parts are unrelated; each lists some results of a single study. Values joined by “and” are separate records of one study, mostly repeats; a detail may differ. ± gives the spread as reported.
Chain of UniProt Q9BXA7 (whole entry, looked up): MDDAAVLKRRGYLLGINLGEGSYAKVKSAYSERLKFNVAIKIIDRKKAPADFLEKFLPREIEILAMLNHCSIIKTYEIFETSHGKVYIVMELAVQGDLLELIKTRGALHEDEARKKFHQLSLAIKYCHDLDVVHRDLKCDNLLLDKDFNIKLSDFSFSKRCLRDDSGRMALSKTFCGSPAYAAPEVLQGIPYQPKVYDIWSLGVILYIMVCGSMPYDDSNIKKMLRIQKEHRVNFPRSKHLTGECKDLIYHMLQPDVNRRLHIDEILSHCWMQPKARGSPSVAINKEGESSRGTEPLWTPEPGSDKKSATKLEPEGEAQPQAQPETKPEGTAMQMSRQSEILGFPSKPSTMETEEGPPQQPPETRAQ
Chain of UniProt Q06187 (whole entry, looked up): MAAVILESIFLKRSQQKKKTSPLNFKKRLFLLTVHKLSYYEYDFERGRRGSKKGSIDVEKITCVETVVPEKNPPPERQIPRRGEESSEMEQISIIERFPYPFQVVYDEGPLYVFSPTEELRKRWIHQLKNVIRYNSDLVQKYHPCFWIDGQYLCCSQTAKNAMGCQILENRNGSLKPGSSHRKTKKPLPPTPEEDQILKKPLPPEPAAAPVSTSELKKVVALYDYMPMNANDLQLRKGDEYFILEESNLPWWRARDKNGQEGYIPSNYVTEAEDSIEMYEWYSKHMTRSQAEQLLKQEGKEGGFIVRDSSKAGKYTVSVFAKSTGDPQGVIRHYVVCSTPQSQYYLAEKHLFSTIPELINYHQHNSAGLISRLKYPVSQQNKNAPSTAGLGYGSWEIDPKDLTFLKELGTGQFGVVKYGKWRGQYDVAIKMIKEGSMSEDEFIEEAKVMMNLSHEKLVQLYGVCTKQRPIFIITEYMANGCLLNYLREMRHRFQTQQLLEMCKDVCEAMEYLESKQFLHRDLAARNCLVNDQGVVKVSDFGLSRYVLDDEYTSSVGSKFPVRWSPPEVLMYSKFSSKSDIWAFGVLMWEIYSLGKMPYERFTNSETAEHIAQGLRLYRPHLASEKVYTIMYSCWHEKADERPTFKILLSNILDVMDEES

Block 1
Structure (SMILES): COCC1CC2C(CCC3(C)C(O)CCC23)c2ccc(O)cc21 (centres unmarked)
Method: DNA microarray
Relative to: untreated cells
cell line | item | concentration | notes | log2 fold change
A549 | MCM10 | 50 µM | – | -0.365
A549 | GINS1 | 50 µM | – | -0.444
SK-OV-3 | MCM6 | concentration not given | higher dose arm | -0.352
PANC-1 | DNER | concentration not given | lower dose arm | 6.11
PANC-1 | ISG20L1 | concentration not given | lower dose arm | -0.0678
A549 | IL28A | 50 µM | – | 1.41
A549 | RFC3 | 50 µM | – | -0.273
A549 | ORC1L | 50 µM | – | -0.529

Block 2
Cell line: Gaucher fibroblasts L444P/L444P
Method: 4-MUG hydrolysis, cell lysate
Concentration: 10 µM
Relative to: DMSO
SMILES | GCase activity
COc1ccc(Nc2nc(NCCN3CCOCC3)nc(N3CCOCC3)n2)cc1 | 104% and 109% and 103% and 113%
Ic1ccc(Nc2nc(NCCN3CCCCC3)nc(N3CCOCC3)n2)cc1 | 103% and 92.2% and 95.2% and 86.9% and 105% and 97.6%
Ic1ccc(Nc2nc(NCCc3c[nH]c4ccccc34)nc(NCCN3CCOCC3)n2)cc1 | 106% and 96.5% and 94.2% and 99% and 101%
CCN(CC)c1nc(NCCN2CCOCC2)nc(Nc2ccc(I)cc2)n1 | 72.8% and 69.3% and 81.8% and 65.2% and 73.3%
CCOc1ccc2nc(Sc3nc(N4CCOCC4)nc(N4CCOCC4)n3)sc2c1 | 125% and 111% and 92.6% and 121%
Ic1ccc(Nc2nc(NCCN3CCOCC3)nc(NC3CCCCC3)n2)cc1 | 101% and 91% and 89.3% and 91.4% and 87.8%
Ic1ccc(Nc2nc(NCCN3CCOCC3)nc(N3CCSCC3)n2)cc1 | 92.5% and 98.9% and 104%
Fc1ccc(Nc2nc(NCCN3CCOCC3)nc(N3CCOCC3)n2)cc1 | 104% and 106% and 110% and 111% and 105%

Block 3
Compound: Cn1cc(-c2cccc(CN3CCC4(CC3)COc3c4ccc4c3CN([C@H]3CCC(=O)NC3=O)C4=O)c2)cn1
Notes: mean
matrix | time | remaining compound
rat plasma | 15 min | 114%
mouse plasma | 15 min | 114%
rat plasma | 5 min | 117%
monkey plasma | 60 min | 108%

Further values, each from its own experiment
Compound | target or system | test | conditions | quantity | value
CN(C1COC1)C(C)(C)/C=C(\C#N)C(=O)N1CCC[C@H]1Cn1nc(-c2ccc(Oc3ccccc3)cc2F)c2c(N)ncnc21 | Tyrosine-protein kinase BTK (BTK, Homo sapiens, UniProt Q06187) | enzyme activity, inhibitor | – | KI (inactivation) | 11 nM
CNc1ncc2cc(-c3cc(OC)cc(OC)c3Cl)c(=O)n(CCc3ccc(NC(=O)C(C#N)=CC(C)(C)N4CCOCC4)cc3)c2n1 | Testis-specific serine/threonine-protein kinase 1 (TSSK1B, Homo sapiens, UniProt Q9BXA7) | kinase activity | 1 µM | inhibition | -2%
CC(C)(C=C(C#N)C(=O)N1CCCC1Cn1nc(-c2ccc(Oc3ccccc3)cc2F)c2c(N)ncnc21)N1CCOCC1 (centres unmarked) | – | – | 10-fold dilution, LC-MS, with: β-mercaptoethanol | dissociation half-life | 2.46 ± 0.01 min

Repeated from above (block 2):
SMILES | GCase activity
Ic1ccc(Nc2nc(NCCN3CCOCC3)nc(N3CCSCC3)n2)cc1 | 92.5% and 98.9% and 104%
Fc1ccc(Nc2nc(NCCN3CCOCC3)nc(N3CCOCC3)n2)cc1 | 104% and 106% and 110% and 111% and 105%
